Measured values from different studies.
A part holds a random share of what one study measured. Several values in a cell are separate wells, animals, samples, runs or records. pIC50: −log10 of the molar value.
Sequence of UniProt P10721 (whole entry, unmodified, looked up): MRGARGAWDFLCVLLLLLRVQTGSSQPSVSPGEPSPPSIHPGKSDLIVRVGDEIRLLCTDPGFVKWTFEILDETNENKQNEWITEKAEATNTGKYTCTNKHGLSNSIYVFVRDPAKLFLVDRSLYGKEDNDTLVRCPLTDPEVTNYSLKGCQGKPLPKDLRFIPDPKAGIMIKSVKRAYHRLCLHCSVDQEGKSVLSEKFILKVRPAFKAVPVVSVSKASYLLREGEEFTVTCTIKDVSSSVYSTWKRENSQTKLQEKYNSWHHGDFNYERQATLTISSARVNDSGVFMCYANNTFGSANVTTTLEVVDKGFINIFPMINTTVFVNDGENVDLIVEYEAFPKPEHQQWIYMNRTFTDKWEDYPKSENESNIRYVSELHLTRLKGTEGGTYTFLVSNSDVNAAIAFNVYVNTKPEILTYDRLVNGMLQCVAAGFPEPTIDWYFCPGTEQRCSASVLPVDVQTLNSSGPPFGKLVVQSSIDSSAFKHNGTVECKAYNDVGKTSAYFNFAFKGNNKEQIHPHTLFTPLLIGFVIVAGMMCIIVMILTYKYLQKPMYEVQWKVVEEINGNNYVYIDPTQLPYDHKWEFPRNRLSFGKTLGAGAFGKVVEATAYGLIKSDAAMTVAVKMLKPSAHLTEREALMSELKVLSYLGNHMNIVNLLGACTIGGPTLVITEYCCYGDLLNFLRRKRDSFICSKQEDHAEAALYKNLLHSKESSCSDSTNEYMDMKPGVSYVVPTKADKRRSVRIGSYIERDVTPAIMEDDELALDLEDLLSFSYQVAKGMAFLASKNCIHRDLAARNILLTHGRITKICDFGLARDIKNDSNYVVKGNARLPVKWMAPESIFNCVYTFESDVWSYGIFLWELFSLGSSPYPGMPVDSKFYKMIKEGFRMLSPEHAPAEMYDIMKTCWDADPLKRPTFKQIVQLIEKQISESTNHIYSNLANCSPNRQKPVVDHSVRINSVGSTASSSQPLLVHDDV
Sequence of UniProt P29320 (whole entry, looked up): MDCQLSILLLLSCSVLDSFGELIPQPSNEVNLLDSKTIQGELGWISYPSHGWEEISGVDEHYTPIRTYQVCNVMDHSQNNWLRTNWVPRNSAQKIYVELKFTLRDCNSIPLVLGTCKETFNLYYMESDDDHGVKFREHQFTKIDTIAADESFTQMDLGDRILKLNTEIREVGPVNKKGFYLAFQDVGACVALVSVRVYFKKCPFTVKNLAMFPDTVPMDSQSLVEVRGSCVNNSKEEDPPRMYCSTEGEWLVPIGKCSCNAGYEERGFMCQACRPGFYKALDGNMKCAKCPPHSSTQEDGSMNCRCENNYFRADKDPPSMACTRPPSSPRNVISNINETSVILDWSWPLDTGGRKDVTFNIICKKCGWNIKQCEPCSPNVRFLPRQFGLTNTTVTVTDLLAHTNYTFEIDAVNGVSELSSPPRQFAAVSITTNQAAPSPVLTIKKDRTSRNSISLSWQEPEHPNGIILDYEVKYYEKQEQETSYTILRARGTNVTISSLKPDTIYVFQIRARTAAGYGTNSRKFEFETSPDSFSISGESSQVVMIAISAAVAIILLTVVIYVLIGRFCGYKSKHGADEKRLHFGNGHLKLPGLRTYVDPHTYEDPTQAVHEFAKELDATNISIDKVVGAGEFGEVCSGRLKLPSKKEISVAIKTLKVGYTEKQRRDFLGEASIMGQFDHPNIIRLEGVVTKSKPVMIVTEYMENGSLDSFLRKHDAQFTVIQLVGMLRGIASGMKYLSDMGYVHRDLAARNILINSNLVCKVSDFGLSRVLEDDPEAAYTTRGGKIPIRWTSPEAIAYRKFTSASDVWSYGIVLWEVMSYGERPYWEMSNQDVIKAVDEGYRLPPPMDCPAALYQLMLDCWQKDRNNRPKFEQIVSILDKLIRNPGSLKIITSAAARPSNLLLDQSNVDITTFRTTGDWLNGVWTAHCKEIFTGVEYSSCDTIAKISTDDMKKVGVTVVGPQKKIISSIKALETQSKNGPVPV
Sequence of UniProt P30530 (whole entry, looked up): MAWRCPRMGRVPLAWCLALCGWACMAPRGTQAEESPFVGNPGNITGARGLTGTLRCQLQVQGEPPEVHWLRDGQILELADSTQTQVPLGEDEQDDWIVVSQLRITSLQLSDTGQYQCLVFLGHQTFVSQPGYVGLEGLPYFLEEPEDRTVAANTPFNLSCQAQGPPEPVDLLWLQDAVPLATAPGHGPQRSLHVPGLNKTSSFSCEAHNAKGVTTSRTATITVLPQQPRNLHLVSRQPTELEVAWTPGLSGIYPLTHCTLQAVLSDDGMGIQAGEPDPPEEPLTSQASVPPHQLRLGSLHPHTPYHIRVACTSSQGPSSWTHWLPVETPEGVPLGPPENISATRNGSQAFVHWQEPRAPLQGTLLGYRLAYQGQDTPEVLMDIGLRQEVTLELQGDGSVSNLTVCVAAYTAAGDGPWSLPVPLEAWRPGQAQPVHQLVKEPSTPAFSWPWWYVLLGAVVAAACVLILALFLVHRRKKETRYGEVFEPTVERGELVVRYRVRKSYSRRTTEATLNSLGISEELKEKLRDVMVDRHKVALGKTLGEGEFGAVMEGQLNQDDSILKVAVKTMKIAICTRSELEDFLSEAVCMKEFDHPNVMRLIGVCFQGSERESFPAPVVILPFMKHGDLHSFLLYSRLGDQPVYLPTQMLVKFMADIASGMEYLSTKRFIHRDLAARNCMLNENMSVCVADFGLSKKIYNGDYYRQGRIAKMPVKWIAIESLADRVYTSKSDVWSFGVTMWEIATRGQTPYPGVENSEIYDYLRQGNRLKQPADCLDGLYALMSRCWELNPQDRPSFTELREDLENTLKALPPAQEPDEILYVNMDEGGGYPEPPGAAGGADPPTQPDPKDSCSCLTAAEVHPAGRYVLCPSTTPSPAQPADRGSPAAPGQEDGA

Sample 1
Target: Membrane-associated tyrosine- and threonine-specific cdc2-inhibitory kinase (PKMYT1, Homo sapiens, UniProt Q99640)
Sequence of UniProt Q99640 (whole entry, looked up): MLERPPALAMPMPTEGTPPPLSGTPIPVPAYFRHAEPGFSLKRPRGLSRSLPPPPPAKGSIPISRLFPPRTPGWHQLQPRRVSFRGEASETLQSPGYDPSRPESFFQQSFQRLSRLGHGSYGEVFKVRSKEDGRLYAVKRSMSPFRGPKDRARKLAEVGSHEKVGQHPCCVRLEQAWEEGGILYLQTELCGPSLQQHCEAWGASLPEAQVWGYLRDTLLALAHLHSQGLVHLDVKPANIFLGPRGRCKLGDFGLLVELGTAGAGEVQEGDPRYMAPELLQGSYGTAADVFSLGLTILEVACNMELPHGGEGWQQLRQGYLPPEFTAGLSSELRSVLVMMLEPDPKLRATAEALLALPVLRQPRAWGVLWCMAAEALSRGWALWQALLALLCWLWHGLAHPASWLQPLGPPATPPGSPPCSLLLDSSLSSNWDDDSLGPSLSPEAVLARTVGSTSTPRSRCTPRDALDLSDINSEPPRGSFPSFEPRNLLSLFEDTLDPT
Mode: degrader
Method: automated immunoblot
Cell line: HCC1569
Time: 24 h
Cc1ccc(O)c(C)c1-c1cnc2[nH]c(-c3cnc(N4CCC(CN5CCN(c6cc7c(cc6F)c(N6CCC(=O)NC6=O)nn7C)CC5)CC4)nc3)cc2c1C#N gave a Dmax of 70%.
The Dmax of Cc1ccc(O)c(C)c1-c1cnc2[nH]c(-c3cnc(N4CCC(CN5CCN(c6ccc7c(c6F)CN(C6CCC(=O)NC6=O)C7=O)CC5)CC4)nc3)cc2c1C#N (stereo not shown) is reported as 92%.
With Cc1ccc(O)c(C)c1-c1cnc2[nH]c(-c3cnc(N4CCC5(CC4)CC(N4CCN(c6ccc(N[C@H]7CCC(=O)NC7=O)cc6F)CC4)CO5)nc3)cc2c1C#N (single isomer, unassigned) the Dmax was 90%.
Cc1ccc(O)c(C)c1-c1cnc2[nH]c(-c3cnc(N4CCC(CN5CCC(c6ccc(NC7CCC(=O)NC7=O)cc6F)CC5)CC4)nc3)cc2c1C#N (stereo not shown) gave a Dmax of 86%.
Cc1ccc(O)c(C)c1-c1cnc2[nH]c(-c3cnc(N4CCC(CN5CCN(c6ccc(NC7CCC(=O)NC7=O)cc6F)CC5)CC4)nc3)cc2c1C#N (stereo not shown) gave a Dmax of 91%.
Cc1ccc(O)c(C)c1-c1cnc2[nH]c(-c3cnc(N4CCC(CCN5CCN(c6ccc(NC7CCC(=O)NC7=O)cc6F)CC5)CC4)nc3)cc2c1C#N (stereo not shown) gave a Dmax of 87%.

Sample 2
Compound: CCC1(c2cccc(-c3cn(C)nc3C)c2)C2=C(Nc3n[nH]cc31)C(F)C(C)(C)CC2=O (single isomer, unassigned)
Tested at: 1 µM
The remaining binding was 100% (Tyrosine-protein kinase receptor UFO (AXL, Homo sapiens, UniProt P30530); binding, competition with immobilised ligand).
It gave 96% for remaining binding (TRAF2 and NCK-interacting protein kinase (TNIK, Homo sapiens, UniProt Q9UKE5); binding, competition with immobilised ligand).
For Tyrosine-protein kinase Srms (SRMS, Homo sapiens, UniProt Q9H3Y6); binding, competition with immobilised ligand: remaining binding read 88%.
The remaining binding was 84% (Bone morphogenetic protein receptor type-2 (BMPR2, Homo sapiens, UniProt Q13873); binding, competition with immobilised ligand).
It gave 100% for remaining binding (Mast/stem cell growth factor receptor Kit (KIT, Homo sapiens, UniProt P10721, D816V); kinase binding, KINOMEscan; reference: DMSO control).
Atypical kinase COQ8B, mitochondrial (COQ8B, Homo sapiens, UniProt Q96D53); binding, competition with immobilised ligand — remaining binding: 100%.
Ephrin type-A receptor 3 (EPHA3, Homo sapiens, UniProt P29320); binding, competition with immobilised ligand — remaining binding: 88%.
The remaining binding was 100% (Protein kinase C delta type (PRKCD, Homo sapiens, UniProt Q05655); binding, competition with immobilised ligand).
For Serine/threonine-protein kinase 33 (STK33, Homo sapiens, UniProt Q9BYT3); binding, competition with immobilised ligand: remaining binding read 96%.
Receptor-type tyrosine-protein kinase FLT3 (FLT3, Homo sapiens, UniProt P36888, D835V); binding, competition with immobilised ligand — remaining binding: 89%.
The remaining binding was 98% (Mitogen-activated protein kinase 10 (MAPK10, Homo sapiens, UniProt P53779); kinase binding, KINOMEscan; reference: DMSO control).
It gave 100% for remaining binding (Casein kinase I isoform gamma-1 (CSNK1G1, Homo sapiens, UniProt Q9HCP0); kinase binding, KINOMEscan; reference: DMSO control).
The remaining binding was 100% (Receptor-type tyrosine-protein kinase FLT3 (FLT3, Homo sapiens, UniProt P36888, R834Q); kinase binding, KINOMEscan; reference: DMSO control).
For Receptor tyrosine-protein kinase erbB-2 (ERBB2, Homo sapiens, UniProt P04626); binding, competition with immobilised ligand: remaining binding read 90%.

Sample 3
SMILES: C[C@@H]1CN(c2ccc(-c3cc(C(=O)NCCOCCOCCOCCOCCNC(=O)Cn4cc(-c5[nH]cc(C(=O)N[C@@H](CC(N)=O)c6ccc(F)c(Cl)c6)c5-c5ccc(Cl)cc5F)cn4)ccc3F)cc2NC(=O)c2c[nH]c(=O)cc2C(F)(F)F)C[C@H](C)N1C
Effect on: thermal unfolding
Method: differential scanning fluorimetry
Tested at: 5.5 µM
Reading: higher = more unfolded
DCAF1: DDB1- and CUL4-associated factor 1 (DCAF1, Homo sapiens, UniProt Q9Y4B6)
Sequence of UniProt Q9Y4B6 (whole entry, looked up): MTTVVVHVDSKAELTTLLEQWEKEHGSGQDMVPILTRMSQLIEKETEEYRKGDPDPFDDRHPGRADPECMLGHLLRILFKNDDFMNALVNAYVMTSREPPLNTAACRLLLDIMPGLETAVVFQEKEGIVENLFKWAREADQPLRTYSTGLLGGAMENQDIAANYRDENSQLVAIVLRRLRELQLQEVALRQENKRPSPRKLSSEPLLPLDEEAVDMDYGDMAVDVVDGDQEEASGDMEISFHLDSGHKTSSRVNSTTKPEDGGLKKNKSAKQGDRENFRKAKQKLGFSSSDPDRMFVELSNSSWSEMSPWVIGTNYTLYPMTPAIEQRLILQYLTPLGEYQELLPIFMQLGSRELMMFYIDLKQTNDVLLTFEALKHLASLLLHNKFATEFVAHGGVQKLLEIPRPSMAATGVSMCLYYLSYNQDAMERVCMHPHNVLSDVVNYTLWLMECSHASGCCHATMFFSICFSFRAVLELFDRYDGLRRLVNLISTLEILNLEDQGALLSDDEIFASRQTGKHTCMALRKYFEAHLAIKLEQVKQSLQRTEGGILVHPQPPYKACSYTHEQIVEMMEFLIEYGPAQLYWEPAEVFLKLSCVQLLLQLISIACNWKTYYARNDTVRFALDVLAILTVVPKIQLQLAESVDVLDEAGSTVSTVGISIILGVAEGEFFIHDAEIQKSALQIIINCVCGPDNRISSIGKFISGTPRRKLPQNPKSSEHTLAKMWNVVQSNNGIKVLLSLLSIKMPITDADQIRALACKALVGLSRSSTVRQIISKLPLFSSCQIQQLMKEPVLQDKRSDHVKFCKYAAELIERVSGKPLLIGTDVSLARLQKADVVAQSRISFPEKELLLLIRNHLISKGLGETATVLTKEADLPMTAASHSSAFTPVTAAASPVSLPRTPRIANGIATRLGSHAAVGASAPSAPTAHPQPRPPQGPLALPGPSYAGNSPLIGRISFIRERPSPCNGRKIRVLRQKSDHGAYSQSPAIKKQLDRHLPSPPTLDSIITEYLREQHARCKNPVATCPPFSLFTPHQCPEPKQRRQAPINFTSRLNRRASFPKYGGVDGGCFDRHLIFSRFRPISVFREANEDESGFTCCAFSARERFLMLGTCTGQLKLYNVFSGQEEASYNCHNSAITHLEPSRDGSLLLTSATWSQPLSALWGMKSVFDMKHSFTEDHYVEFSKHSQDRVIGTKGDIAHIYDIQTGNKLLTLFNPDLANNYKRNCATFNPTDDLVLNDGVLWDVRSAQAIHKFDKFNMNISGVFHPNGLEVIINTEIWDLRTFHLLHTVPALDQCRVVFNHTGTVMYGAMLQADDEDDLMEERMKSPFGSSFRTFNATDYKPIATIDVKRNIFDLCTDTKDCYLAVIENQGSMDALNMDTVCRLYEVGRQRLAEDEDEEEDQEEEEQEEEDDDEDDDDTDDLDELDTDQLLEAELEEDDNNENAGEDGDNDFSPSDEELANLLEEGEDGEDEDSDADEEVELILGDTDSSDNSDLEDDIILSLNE
WDR5: WD repeat-containing protein 5 (WDR5, Homo sapiens, UniProt P61964)
The “SYPRO Orange fluorescence” was 55900 a.u. (DCAF1; 65.01 °C).
For DCAF1; 75.21 °C: “SYPRO Orange fluorescence” read 49000 a.u.
DCAF1; 43.8 °C — “SYPRO Orange fluorescence”: 11700 a.u.
For WDR5; 85.21 °C: “SYPRO Orange fluorescence” read 39800 a.u.
The “SYPRO Orange fluorescence” was 7710 a.u. (DCAF1; 26.8 °C).
WDR5; 61.81 °C — “SYPRO Orange fluorescence”: 9340 a.u.
It gave 29300 a.u. for “SYPRO Orange fluorescence” (WDR5; 81.81 °C).

Mixed results
CCN1CCN(Cc2ccc(COc3c(-c4c(C)c(F)cc5[nH]ncc45)c(C4CC4)cc4c(N5C[C@@H]6C[C@H]5CN6)nc(OC5CCOCC5)nc34)cc2)C(=O)C1 gave a koff of 0.00387 s⁻¹ (GTPase KRas, GDP-bound (KRAS, Homo sapiens, UniProt P01116, G12D); SPR, multi-cycle; immobilized KRAS G12D; binary, geometric mean).
Cc1ncsc1-c1ccc(C(CO)NC(=O)C2CC(O)CN2C(=O)C(NC(=O)c2ccc(COc3c(-c4c(C)c(F)cc5[nH]ncc45)c(C4CC4)cc4c(N5CC6CC5CN6)nc(OC5CCOCC5)nc34)cc2)C(C)C)cc1 (stereo not shown) has a DC50 of 106 nM (GTPase KRas (KRAS, Homo sapiens, UniProt P01116, G12D); degrader, In-Cell ELISA; AsPC-1 (KRAS G12D); 24 h, geometric mean).
For Cc1ncsc1-c1ccc(C(CO)NC(=O)C2CC(O)CN2C(=O)C(C(C)C)n2cc(-c3ccc(COc4c(-c5c(C)c(F)cc6[nH]ncc56)c(C5CC5)cc5c(N6CC7CC6CN7)nc(OC6CCOCC6)nc45)cc3)nn2)cc1 (stereo not shown), the ERK1/2 phosphorylation was 82.5% and 87.1% and 84.3% (AsPC-1; in-cell ELISA, item: phospho-ERK1/2; 3 nM).
Cc1ncsc1-c1ccc(C2(NC(=O)C3CC(O)CN3C(=O)C(NC(=O)c3ccc(COc4c(-c5c(C)c(F)cc6[nH]ncc56)c(C5CC5)cc5c(N6CC7CC6CN7)nc(OC6CCOCC6)nc45)cc3)C(C)C)CC2)cc1 (stereo not shown) has a pIC50 of 6.51 (AsPC-1; cell growth, CellTiter-Glo; overall of experiments).

A few entries again (sample 3):
The “SYPRO Orange fluorescence” was 55900 a.u. (DCAF1; 65.01 °C).
For DCAF1; 75.21 °C: “SYPRO Orange fluorescence” read 49000 a.u.
DCAF1; 43.8 °C — “SYPRO Orange fluorescence”: 11700 a.u.
